Experimental data gathered from unrelated publications.
Parts stem from different laboratories: compare values within a part only. Values joined by “and” are separate records of one study, mostly repeats; a detail may differ.
Sequence of UniProt P00519 (whole entry, unmodified, looked up): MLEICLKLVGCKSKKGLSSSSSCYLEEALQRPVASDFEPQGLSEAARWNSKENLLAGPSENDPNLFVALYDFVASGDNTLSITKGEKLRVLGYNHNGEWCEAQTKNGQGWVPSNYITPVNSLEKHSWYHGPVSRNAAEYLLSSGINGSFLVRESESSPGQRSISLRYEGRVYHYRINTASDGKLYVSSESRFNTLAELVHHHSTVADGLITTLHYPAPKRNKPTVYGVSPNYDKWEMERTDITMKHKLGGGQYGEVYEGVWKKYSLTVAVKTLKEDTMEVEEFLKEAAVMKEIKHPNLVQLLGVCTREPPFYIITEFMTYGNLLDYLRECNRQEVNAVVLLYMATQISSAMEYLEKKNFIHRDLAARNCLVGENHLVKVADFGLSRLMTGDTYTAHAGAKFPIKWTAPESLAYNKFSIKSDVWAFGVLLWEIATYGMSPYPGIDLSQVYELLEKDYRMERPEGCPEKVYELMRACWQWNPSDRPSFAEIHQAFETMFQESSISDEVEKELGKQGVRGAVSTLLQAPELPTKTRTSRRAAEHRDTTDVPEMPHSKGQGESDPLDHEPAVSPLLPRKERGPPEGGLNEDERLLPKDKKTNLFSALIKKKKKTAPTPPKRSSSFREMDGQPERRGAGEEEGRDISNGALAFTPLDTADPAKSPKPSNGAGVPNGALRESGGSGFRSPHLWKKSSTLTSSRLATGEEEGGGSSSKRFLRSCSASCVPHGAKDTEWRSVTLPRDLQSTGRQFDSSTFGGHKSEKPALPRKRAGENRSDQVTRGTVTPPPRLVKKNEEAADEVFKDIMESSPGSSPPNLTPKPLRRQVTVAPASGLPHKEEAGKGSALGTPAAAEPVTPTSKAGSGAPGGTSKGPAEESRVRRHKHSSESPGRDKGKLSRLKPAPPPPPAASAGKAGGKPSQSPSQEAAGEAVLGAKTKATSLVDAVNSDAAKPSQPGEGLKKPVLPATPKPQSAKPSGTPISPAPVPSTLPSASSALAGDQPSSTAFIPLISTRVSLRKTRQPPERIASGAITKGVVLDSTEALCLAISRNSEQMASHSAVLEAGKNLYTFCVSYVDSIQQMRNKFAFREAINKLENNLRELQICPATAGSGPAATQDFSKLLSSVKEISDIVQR
Sequence of UniProt O15530 (whole entry, looked up): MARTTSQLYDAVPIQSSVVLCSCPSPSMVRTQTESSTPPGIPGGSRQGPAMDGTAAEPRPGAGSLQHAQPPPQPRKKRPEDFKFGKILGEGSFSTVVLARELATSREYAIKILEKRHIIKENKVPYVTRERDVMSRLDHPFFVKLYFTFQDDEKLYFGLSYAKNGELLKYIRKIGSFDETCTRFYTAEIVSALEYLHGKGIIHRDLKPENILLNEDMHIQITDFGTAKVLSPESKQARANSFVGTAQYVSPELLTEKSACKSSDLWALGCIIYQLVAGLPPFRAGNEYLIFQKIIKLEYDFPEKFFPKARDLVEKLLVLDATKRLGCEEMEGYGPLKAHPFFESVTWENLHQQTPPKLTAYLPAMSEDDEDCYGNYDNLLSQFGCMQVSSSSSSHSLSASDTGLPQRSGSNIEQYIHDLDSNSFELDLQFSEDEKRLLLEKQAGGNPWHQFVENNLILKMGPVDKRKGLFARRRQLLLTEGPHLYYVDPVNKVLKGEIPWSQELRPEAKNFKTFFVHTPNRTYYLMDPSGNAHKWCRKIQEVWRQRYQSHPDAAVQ
Sequence of UniProt P23945 (whole entry, looked up): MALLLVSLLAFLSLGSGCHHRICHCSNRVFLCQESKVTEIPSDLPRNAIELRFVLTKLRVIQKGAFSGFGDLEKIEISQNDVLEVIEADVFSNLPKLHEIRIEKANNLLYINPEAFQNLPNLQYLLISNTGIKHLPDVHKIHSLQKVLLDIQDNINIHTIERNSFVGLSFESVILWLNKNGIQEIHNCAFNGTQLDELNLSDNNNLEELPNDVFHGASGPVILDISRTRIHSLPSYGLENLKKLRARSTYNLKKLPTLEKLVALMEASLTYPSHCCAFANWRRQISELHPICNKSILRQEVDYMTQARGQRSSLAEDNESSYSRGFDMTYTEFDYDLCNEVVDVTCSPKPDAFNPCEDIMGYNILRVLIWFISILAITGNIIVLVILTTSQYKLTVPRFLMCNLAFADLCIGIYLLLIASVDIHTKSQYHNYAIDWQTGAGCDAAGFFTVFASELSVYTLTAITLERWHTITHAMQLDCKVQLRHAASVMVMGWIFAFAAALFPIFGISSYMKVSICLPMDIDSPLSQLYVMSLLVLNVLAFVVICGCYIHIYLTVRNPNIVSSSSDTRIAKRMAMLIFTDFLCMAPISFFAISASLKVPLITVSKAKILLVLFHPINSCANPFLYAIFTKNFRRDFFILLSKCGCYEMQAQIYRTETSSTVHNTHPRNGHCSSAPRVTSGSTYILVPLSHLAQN
Sequence of UniProt P51677 (whole entry, looked up): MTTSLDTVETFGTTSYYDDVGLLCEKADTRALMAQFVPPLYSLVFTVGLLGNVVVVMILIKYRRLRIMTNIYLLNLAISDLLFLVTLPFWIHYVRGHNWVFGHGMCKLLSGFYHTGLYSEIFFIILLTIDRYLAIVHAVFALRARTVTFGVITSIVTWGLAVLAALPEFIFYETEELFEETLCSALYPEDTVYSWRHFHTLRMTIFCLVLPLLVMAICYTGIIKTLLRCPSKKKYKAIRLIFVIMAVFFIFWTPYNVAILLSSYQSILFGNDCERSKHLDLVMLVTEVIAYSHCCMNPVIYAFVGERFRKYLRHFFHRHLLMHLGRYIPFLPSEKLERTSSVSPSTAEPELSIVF
Sequence of UniProt Q13554 (whole entry, looked up): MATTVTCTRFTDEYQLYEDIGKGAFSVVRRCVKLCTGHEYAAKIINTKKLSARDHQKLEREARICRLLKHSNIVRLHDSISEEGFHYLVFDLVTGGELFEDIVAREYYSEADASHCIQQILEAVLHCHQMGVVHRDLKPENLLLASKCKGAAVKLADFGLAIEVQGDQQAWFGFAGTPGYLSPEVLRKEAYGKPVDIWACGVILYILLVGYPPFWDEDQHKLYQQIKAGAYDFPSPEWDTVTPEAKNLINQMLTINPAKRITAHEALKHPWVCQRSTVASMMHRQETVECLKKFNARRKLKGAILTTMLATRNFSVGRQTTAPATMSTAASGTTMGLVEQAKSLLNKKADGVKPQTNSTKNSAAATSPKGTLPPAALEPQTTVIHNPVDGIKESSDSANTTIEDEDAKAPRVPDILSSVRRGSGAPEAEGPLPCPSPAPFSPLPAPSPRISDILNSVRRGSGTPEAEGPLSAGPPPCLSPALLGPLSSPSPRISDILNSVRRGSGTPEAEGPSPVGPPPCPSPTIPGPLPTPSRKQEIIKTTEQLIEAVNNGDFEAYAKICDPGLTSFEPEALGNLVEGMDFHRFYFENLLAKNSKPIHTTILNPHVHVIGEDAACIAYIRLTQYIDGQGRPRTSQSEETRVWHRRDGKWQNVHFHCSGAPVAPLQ
Sequence of UniProt Q8TDU9 (whole entry, looked up): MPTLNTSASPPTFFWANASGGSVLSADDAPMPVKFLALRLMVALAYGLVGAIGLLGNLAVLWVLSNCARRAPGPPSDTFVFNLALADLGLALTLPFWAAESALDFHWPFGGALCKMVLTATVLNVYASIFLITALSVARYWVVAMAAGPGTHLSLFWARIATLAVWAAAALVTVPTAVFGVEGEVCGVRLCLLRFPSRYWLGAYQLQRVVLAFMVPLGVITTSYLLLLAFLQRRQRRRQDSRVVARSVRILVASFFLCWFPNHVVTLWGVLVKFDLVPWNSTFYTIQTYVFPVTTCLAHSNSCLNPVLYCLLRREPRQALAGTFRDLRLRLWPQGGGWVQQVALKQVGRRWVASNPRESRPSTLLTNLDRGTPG
Sequence of UniProt P54762 (whole entry, looked up): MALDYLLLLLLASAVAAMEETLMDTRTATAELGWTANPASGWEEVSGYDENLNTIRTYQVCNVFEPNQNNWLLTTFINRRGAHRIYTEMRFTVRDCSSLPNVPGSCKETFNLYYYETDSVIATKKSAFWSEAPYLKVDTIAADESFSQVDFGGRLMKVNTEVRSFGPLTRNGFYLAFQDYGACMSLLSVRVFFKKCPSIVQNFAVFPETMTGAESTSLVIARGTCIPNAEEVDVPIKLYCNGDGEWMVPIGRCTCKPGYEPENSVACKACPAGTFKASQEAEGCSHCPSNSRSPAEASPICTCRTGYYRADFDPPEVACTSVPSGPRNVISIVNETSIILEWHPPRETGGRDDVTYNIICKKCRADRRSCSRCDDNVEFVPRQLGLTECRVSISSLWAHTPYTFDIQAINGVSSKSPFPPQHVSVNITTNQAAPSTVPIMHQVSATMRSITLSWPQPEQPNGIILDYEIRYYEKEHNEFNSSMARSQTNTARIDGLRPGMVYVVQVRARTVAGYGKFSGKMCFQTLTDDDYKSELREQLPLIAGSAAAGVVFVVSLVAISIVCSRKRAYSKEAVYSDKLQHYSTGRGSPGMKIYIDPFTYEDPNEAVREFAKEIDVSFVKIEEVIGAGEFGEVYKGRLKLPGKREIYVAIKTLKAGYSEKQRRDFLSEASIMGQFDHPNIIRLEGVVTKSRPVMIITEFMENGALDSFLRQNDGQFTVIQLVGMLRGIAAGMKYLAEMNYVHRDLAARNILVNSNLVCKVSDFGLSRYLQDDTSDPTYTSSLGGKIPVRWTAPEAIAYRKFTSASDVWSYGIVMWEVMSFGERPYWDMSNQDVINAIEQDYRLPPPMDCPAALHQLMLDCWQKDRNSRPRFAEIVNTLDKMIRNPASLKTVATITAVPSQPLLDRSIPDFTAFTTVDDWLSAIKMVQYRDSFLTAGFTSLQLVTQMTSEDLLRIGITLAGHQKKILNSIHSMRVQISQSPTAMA

Study 1 — read-out: β-arrestin recruitment; action: agonist; method: PRESTO-Tango; concentration: 10 µM; reference: untreated
Compound: N=C(N)NC(=O)c1cnn(-c2cccc3ncccc23)c1C1CC1
The “fold over basal” was 3.51 (Relaxin-3 receptor 2 (RXFP4, Homo sapiens, UniProt Q8TDU9)).
Delta-type opioid receptor (OPRD1, Homo sapiens, UniProt P41143) — “fold over basal”: 1.79.
For Hydroxycarboxylic acid receptor 3 (HCAR3, Homo sapiens, UniProt P49019): “fold over basal” read 1.48 fold.
The “fold over basal” was 0.75 (D(2) dopamine receptor (DRD2, Homo sapiens, UniProt P14416)).
The “fold over basal” was 0.93 (Neuropeptide FF receptor 1 (NPFFR1, Homo sapiens, UniProt Q9GZQ6)).
For Follicle-stimulating hormone receptor (FSHR, Homo sapiens, UniProt P23945): “fold over basal” read 1.54 fold.
For G-protein coupled receptor family C group 5 member B (GPRC5B, Homo sapiens, UniProt Q9NZH0): “fold over basal” read 0.91.
It gave 0.86 for “fold over basal” (C-C chemokine receptor type 3 (CCR3, Homo sapiens, UniProt P51677)).

Study 2 — read-out: enzyme activity; action: inhibitor; concentration: 0.5 µM; reference: control
Compound: O=C(Nc1cccc(Nc2nccc(Nc3cccc(C(F)(F)F)c3)n2)c1)C1CC1
Cyclin-dependent kinase 4, with cyclin D3 (CDK4, Homo sapiens, UniProt P11802) — remaining activity: 103%.
Tyrosine-protein kinase ABL1 (ABL1, Homo sapiens, UniProt P00519) — remaining activity: 94.9%.
The remaining activity was 101% (Dual specificity tyrosine-phosphorylation-regulated kinase 3 (DYRK3, Homo sapiens, UniProt O43781)).
For Ribosomal protein S6 kinase alpha-6 (RPS6KA6, Homo sapiens, UniProt Q9UK32): remaining activity read 89.5%.
The remaining activity was 91.3% (Ephrin type-B receptor 4 (EPHB4, Homo sapiens, UniProt P54760)).
The remaining activity was 104% (3-phosphoinositide-dependent protein kinase 1 (PDPK1, Homo sapiens, UniProt O15530)).
For Tyrosine-protein kinase receptor UFO (AXL, Homo sapiens, UniProt P30530): remaining activity read 104%.
For Tyrosine-protein kinase Blk (BLK, Homo sapiens, UniProt P51451): remaining activity read 99.8%.
Serine/threonine-protein kinase 16 (STK16, Homo sapiens, UniProt O75716) — remaining activity: 87%.
Calcium/calmodulin-dependent protein kinase type II subunit beta (CAMK2B, Homo sapiens, UniProt Q13554) — remaining activity: 102%.
For Ribosomal protein S6 kinase alpha-5 (RPS6KA5, Homo sapiens, UniProt O75582): remaining activity read 101%.
For Mitogen-activated protein kinase kinase kinase kinase 4 (MAP4K4, Homo sapiens, UniProt O95819): remaining activity read 92.4%.
Cyclin-dependent kinase 1, with cyclin B (CDK1, Homo sapiens, UniProt P06493) — remaining activity: 89.3%.
It gave 111% for remaining activity (Homeodomain-interacting protein kinase 4 (HIPK4, Homo sapiens, UniProt Q8NE63)).
For Serine/threonine-protein kinase WNK3 (WNK3, Homo sapiens, UniProt Q9BYP7): remaining activity read 105%.
For Ephrin type-B receptor 1 (EPHB1, Homo sapiens, UniProt P54762): remaining activity read 85.6%.
It gave 95.5% for remaining activity (Tyrosine-protein kinase Srms (SRMS, Homo sapiens, UniProt Q9H3Y6)).
For Cyclin-dependent kinase 6, with cyclin D3 (CDK6, Homo sapiens, UniProt Q00534): remaining activity read 98.5%.
It gave 97.6% for remaining activity (Serine/threonine-protein kinase 17A (STK17A, Homo sapiens, UniProt Q9UEE5)).
The remaining activity was 103% (Homeodomain-interacting protein kinase 2 (HIPK2, Homo sapiens, UniProt Q9H2X6)).

Study 3 — method: competition with immobilised ligand; concentration: 1 µM
Compound: Cc1nccc(COC(=O)N2C[C@@H]3[C@@H](CNC(=O)c4ccc5[nH]nnc5c4)[C@@H]3C2)n1
It gave 100% for remaining binding (Tyrosine-protein kinase Fyn (FYN, Homo sapiens, UniProt P06241); cell-free assay).
It gave 85% for remaining binding (Mitogen-activated protein kinase kinase kinase 10 (MAP3K10, Homo sapiens, UniProt Q02779); cell-free assay).
Proto-oncogene tyrosine-protein kinase ROS (ROS1, Homo sapiens, UniProt P08922); cell-free assay — remaining binding: 100%.
For 3-phosphoinositide-dependent protein kinase 1 (PDPK1, Homo sapiens, UniProt O15530); cell-free assay: remaining binding read 100%.
The remaining binding was 100% (Dual specificity mitogen-activated protein kinase kinase 5 (MAP2K5, Homo sapiens, UniProt Q13163); cell-free assay).
Tyrosine-protein kinase CSK (CSK, Homo sapiens, UniProt P41240); cell-free assay — remaining binding: 99%.
For Tyrosine-protein kinase ABL1, phosphorylated (ABL1, Homo sapiens, UniProt P00519, E255K); binding: remaining binding read 89%.
The remaining binding was 70% (G protein-coupled receptor kinase 3 (GRK3, Homo sapiens, UniProt P35626); cell-free assay).
It gave 79% for remaining binding (Serine/threonine-protein kinase WNK2 (WNK2, Homo sapiens, UniProt Q9Y3S1); cell-free assay).
For MAP/microtubule affinity-regulating kinase 3 (MARK3, Homo sapiens, UniProt P27448); cell-free assay: remaining binding read 95%.
It gave 75% for remaining binding (Serine/threonine-protein kinase PAK 3 (PAK3, Homo sapiens, UniProt O75914); cell-free assay).
It gave 100% for remaining binding (Mitogen-activated protein kinase 10 (MAPK10, Homo sapiens, UniProt P53779); cell-free assay).

Study 4 — method: ATPlite
SMILES: C[C@@H]1CN(c2ccc(-c3cc(C(=O)NCCOCCOCCOCCOCCNC(=O)/C=C/c4[nH]cc(C(=O)N[C@@H](CC(N)=O)c5ccc(F)c(Cl)c5)c4-c4ccc(Cl)cc4F)ccc3F)cc2NC(=O)c2c[nH]c(=O)cc2C(F)(F)F)C[C@H](C)N1C
It gave 97.1% and 75.1% and 81.8% for viability (MV4-11; 0.0464 µM, 5 days; reference: DMSO).
MV4-11 expressing HiBiT-WDR5; RPMI with 10% FBS; 88.1 nM, 24 h — viability: 106% and 96.2% and 111%.
The viability was 110% and 106% and 84% (MV4-11 expressing HiBiT-WDR5; RPMI with 10% FBS; 10000 nM, 24 h).
For MV4-11; 0.464 µM, 5 days; reference: DMSO: viability read 89.5% and 72.4% and 102%.
The viability was 112% and 91.7% and 113% (MV4-11 expressing HiBiT-WDR5; RPMI with 10% FBS; 1510 nM, 24 h).
MV4-11; 0.1 µM, 5 days; reference: DMSO — viability: 76.6% and 71.6% and 96.6% and 83.4%.
For MV4-11 expressing HiBiT-WDR5; RPMI with 10% FBS; 5.15 nM, 24 h: viability read 100% and 97.2% and 81.2%.
The viability was 30.3% and 46.2% and 60.5% and 39.3% (MV4-11; 4.64 µM, 5 days; reference: DMSO).

Repeated from above (study 2):
The remaining activity was 101% (Dual specificity tyrosine-phosphorylation-regulated kinase 3 (DYRK3, Homo sapiens, UniProt O43781)).
Serine/threonine-protein kinase 16 (STK16, Homo sapiens, UniProt O75716) — remaining activity: 87%.
For Ribosomal protein S6 kinase alpha-6 (RPS6KA6, Homo sapiens, UniProt Q9UK32): remaining activity read 89.5%.
It gave 95.5% for remaining activity (Tyrosine-protein kinase Srms (SRMS, Homo sapiens, UniProt Q9H3Y6)).
For Cyclin-dependent kinase 6, with cyclin D3 (CDK6, Homo sapiens, UniProt Q00534): remaining activity read 98.5%.
